Measurements from different studies.
Compare with care: the assays were run in different laboratories.

| Structure (SMILES) | test | system | conditions | endpoint | result |
| --- | --- | --- | --- | --- | --- |
| C=CC(=O)Nc1cc(Nc2nccc(Nc3cc(Cl)c(F)cc3C(C)(C)O)n2)c(OC)cc1N1CC[C@@H](N(C)C)C1 | – | human patients | oral, 400 mg, treatment-emergent adverse events | patients with paronychia | 40% |
| CCN1[C@@H](C(=O)NC23CCC(C(=O)O)(CC2)CC3)[C@H](c2cccc(Cl)c2F)[C@]2(C(=O)Nc3cc(Cl)ccc32)C12CCCCC2 | measured: any-grade treatment-related oral mucositis | human, advanced solid tumours | dose not given, phase I, all patients | patients with adverse event | 4.8% |
| C[C@]1(O)C[C@@](N)(c2ccc(-c3nc4n(c3-c3ccccc3)COc3ccncc3-4)cc2)C1 | – | human, advanced or metastatic solid tumours | dose not given, intermittent dose escalation total | patients with grade ≥3 TEAE | 85.7% |
| Cn1cncc1-c1c(F)cncc1NC(=O)c1c(N)nn2cc(F)cnc12 | – | human patients | oral, dose not given, all doses | patients grade ≥3 Platelet count decrease | 6% |
| O=C(c1ccc(F)c(F)c1Nc1ccc(I)cc1F)N1CC(O)([C@@H]2CCCCN2)C1 | – | human patients | oral, 1 mg/kg, patients aged at least sample B years | patients with AE leading to withdrawal | 0% |
| CN(C)C(=O)c1cc2cnc(Nc3ccc(N4CCNCC4)cn3)nc2n1C1CCCC1 | measured: Thrombocytopenia, AESI | human, HR+/HER2− advanced breast cancer | oral, dose not given, grade 3, CTCAE v4.03 | patients with adverse event | 0.6% |
| CCN(CCO)CCCC(C)Nc1ccnc2cc(Cl)ccc12 (stereo not shown) | – | human, newly diagnosed glioblastoma | oral, 200 mg/dose, platelet decrease grade 1, with RT and TMZ | patients with adverse event | 66% |
| COc1ccc(-c2c(-c3ccc(C#N)c(F)c3)nc(N3CCC(N)CC3)n(C)c2=O)cc1F | measured: portal vein thrombosis | human patients | oral, dose not given, dose escalation | patients with serious TEAE | 2% |
| CCS(=O)(=O)Nc1ccc(Oc2ccc(F)cc2F)c(-c2cn(C)c(=O)c3[nH]ccc23)c1 | measured: Acidosis | human, relapsed/refractory AML | oral, dose not given, trial, added: alone or with venetoclax | patients with fatal adverse event | 0% |
| Cc1ncnc2c1ccn2[C@@H]1C[C@H](Oc2cc(C(F)F)c(F)c3c2CNCC3)[C@@H](O)[C@H]1O | – | human, phase I patients | dose not given | patients discontinued for adverse events | 11% |
| NC(=O)[C@H]1CCN(c2ncnc(N)c2F)C[C@@H]1N1CCC[C@@H](Nc2cc(Cl)cc(C(F)(F)F)c2)C1=O | – | human patients | oral, dose not given, grade ≥3 | patients with hypocalcemia | 5% |
| O=C([O-])CN1CCN(CC(=O)[O-])CCN(CC(=O)NCC2CCC(C(=O)N[C@@H](Cc3ccc4ccccc4c3)C(=O)NCCCC[C@H](NC(=O)N[C@@H](CCC(=O)O)C(=O)O)C(=O)O)CC2)CCN(CC(=O)[O-])CC1.[177Lu+3] (stereo partly shown) | 99mTc-DTPA plasma clearance | human | concentration not given | patients with mild GFR decrease | 69% |
| COc1ncnn2ccc(-c3cnc4nc(C)n(Cc5nnc([C@@H](C)F)o5)c4c3)c12 | – | human | oral, dose not given, grade 3 | patients with hypotension | 7.1% |
| CC[C@H](C)CCCCC(=O)N[C@@H](CCN)C(=O)N[C@H](C(=O)N[C@@H](CCN)C(=O)N[C@H]1CCNC(=O)[C@H]([C@@H](C)O)NC(=O)[C@H](CCN)NC(=O)[C@H](CCN)NC(=O)[C@H](CC(C)C)NC(=O)[C@@H](Cc2ccccc2)NC(=O)[C@H](CCN)NC1=O)[C@@H](C)O | – | human, critically ill adults | intravenous, dose not given, median 9 d, RIFLE criteria | patients developing AKI | ~40% |
| N[C@@H]1c2ccccc2OC12CCN(c1cnc3c(N4CCCc5ncccc54)n[nH]c3n1)CC2 | measured: anemia | human advanced or metastatic solid tumours | oral, dose not given, phase Ia | patients with serious adverse event | 3.6% |
| C[C@@H]1OC(=O)NN=C1c1ccc(-c2ccc(F)cc2)c(C(F)(F)F)c1 | phase I trial, measured: Dyspnoea all grades | human patients | 10 mg loading then 0.5 mg daily | patients with adverse event | 0% |
| Cn1ncc(-c2nc(N[C@H]3CC[C@H](N)CC3)ncc2Cl)c1CC1CC1 | measured: treatment-related Diarrhea | human patients phase I | dose not given | patients with adverse events | 12.9% |
| Cc1cn([C@H]2O[C@@H](CO[P@@](=O)(N[C@@H](C)C(=O)OC(C)C)Oc3ccccc3)[C@H](O)[C@H]2F)c(=O)[nH]c1=O | measured: Flu | human | 25 mg | patients with TEAE | 0% |
| O=C1Nc2cc3[nH]nc(-c4ccncc4)c3cc2CN1Cc1ccccc1 | CTCAE v4.03 | human, relapsed or refractory advanced solid tumours | intravenous, 9.6 mg/kg, pooled schedules | patients with nausea | 22% |

Excerpt of the above:
| Structure (SMILES) | test | system | conditions | endpoint | result |
| --- | --- | --- | --- | --- | --- |
| O=C1Nc2cc3[nH]nc(-c4ccncc4)c3cc2CN1Cc1ccccc1 | CTCAE v4.03 | human, relapsed or refractory advanced solid tumours | intravenous, 9.6 mg/kg, pooled schedules | patients with nausea | 22% |
| N[C@@H]1c2ccccc2OC12CCN(c1cnc3c(N4CCCc5ncccc54)n[nH]c3n1)CC2 | measured: anemia | human advanced or metastatic solid tumours | oral, dose not given, phase Ia | patients with serious adverse event | 3.6% |
